Measured values from different studies.
“And” joins repeats or separate records; there may be more than shown. ± marks the error that the study gave.

SMILES = CCO[C@H]1CCN(Cc2c(OC)cc(C)c3[nH]ccc23)[C@H](c2ccc(C(=O)O)cc2)C1; test system = PNH patients, active haemolysis; setting = oral, 200 mg, treatment; measurement = incidence free thyroxine increase; result = 0%
SMILES = Cc1c(C(=O)O)ccc2c3n(nc12)[C@@H]1[C@H](C3)N(CC2CC2)[C@@]2(C(=O)Nc3cc(Cl)ccc32)[C@H]1c1cccc(Cl)c1F; test = phase Ia trial, measured: Neutropenia; test system = cancer patients; setting = oral, dose not given; measurement = adverse event incidence; result = 24%
SMILES = O=C(O)CSc1nnc(Br)n1-c1ccc(C2CC2)c2ccccc12; test system = KM mouse, chronic hyperuricaemia model; setting = dose not given, day 5; measurement = body weight; result = 24.3 g and 29.1 g and 30.9 g and 28.3 g and 27.9 g and 24.1 g
SMILES = CC(C)(C(=O)N1CCOc2c(C#N)cncc2C1)C(F)F; test = measured: vessel puncture site haemorrhage; test system = human, both sexes; setting = oral, 10 mg once daily, 14 days, multiple ascending dose; measurement = subjects with TEAE; result = 0%
SMILES = O=C1NC(=O)C(Cc2ccc(O)cc2)S1 (stereo not shown); test system = sheep erythrocytes; setting = 1 h, pH 7.5; measurement = maximum haemolysis; result = 8.3%
SMILES = C=CC(=O)N1CCC[C@@H](n2c(=O)n(-c3ccc(Oc4ccccc4)cc3)c3c(N)nccc32)C1; test system = human; setting = oral, 300 mg; scale = baseline: fed over fasted; measurement = AUC(0-last) fed/fasted ratio; result = 1.12
SMILES = Cc1ccc(C(=O)N(CCCN)C(c2nc3snc(C)c3c(=O)n2Cc2ccccc2)C(C)C)cc1 (stereo not shown); test = hypophosphataemia grade ≥3 (CTCAE); test system = human patients; setting = intravenous, 13 mg/day; measurement = patients with adverse event; result = 0%
SMILES = C[C@H]1CN(C(=O)CC#N)[C@]12CCN(c1ncnc3[nH]ccc13)C2; test system = healthy human; setting = oral, dose not given; measurement = subjects with Dizziness; result = 3.1%
SMILES = Cn1cc(-c2ccc(-c3cncc(Cl)c3N3CCC4(CCNC4=O)CC3)cc2)cn1; target or system = COLO 205; test = gene expression, microarray, measured: ISG20 mRNA; setting = concentration not given, 6 h; scale = baseline: untreated cells; measurement = log2 fold change; result = 2.93
SMILES = NS(=O)(=O)C#Cc1ccccc1; target or system = Toxoplasma gondii; test = parasite growth; test system = HFF, bradyzoite, alkaline-induced; measurement = EC90; result = 40.8 µM
SMILES = CC(C)(C)c1ccc(C(O)CCCN2CCC(C(O)(c3ccccc3)c3ccccc3)CC2)cc1 (stereo not shown); test system = male Hartley guinea pigs, anaesthetized; setting = intravenous, 1 mg/kg over 10 min, after infusion; measurement = mean blood pressure; result = 41 ± 0.2 mmHg
SMILES = CC(C)n1c(Nc2cccnc2)nc2cnc(Nc3ccc(N4CCN(C)CC4)cc3)nc21; test = measured: Rash; test system = healthy male subjects; setting = oral, 100 mg, added: gemfibrozil; measurement = adverse event incidence; result = 7.1%
SMILES = C[C@H]1O[C@@H](O[C@H]2CC[C@@]3(C)[C@@H](CC[C@]4(C)[C@@H]3C=C[C@]35OC[C@@]6(CCC(C)(C)C[C@H]63)[C@@H](O)C[C@]54C)[C@]2(C)CO)[C@H](O)[C@@H](O[C@@H]2O[C@H](CO)[C@@H](O)[C@H](O)[C@H]2O)[C@H]1O; test = UHPLC-MS/MS; test system = mouse, plasma; setting = oral, 50 mg/kg, 0.5 h; measurement = plasma concentration; result = 63.1 ng/mL
SMILES = O=C(Nc1nc2cccc(-c3ccc(CN4CCS(=O)(=O)CC4)cc3)n2n1)C1CC1; test = measured: ankle fracture; test system = human rheumatoid arthritis patients; setting = oral, 75 mg once daily, 4 weeks, regardless of relatedness; measurement = treatment-emergent adverse events; result = 0%
SMILES = O=C(CCCN1CC=C(n2c(=O)[nH]c3ccccc32)CC1)c1ccc(F)cc1; test system = male Hartley guinea pigs, anaesthetized; setting = intravenous, 0.03 mg/kg group, baseline before infusion; measurement = mean blood pressure; result = 34 ± 0.3 mmHg
SMILES = CNCCOC12CC3(C)CC(C)(CC(Cn4ncc(-c5ccc(N6CCc7cccc(C(=O)Nc8nc9ccccc9s8)c7C6)nc5C(=O)O)c4C)(C3)C1)C2; test system = beagle dog, male, anaesthetised; setting = intravenous bolus, 0.03 mg/kg, 10 min; scale = baseline: baseline; measurement = QTcV interval change; result = -7 ms
SMILES = O=C(O)CCC(=O)O.[2H]C([2H])([2H])Oc1cc(C)c2[nH]ccc2c1CN1CC[C@@H](C2CC2)C[C@H]1c1ccc(C(=O)O)cc1; test system = human, plasma; setting = 200 mg once daily, day 10, multiple ascending dose; measurement = CLss/F; result = 3.08 L/h
SMILES = CCn1c(=O)c(-c2cc(NC(=O)Nc3ccccc3)c(F)cc2Br)cc2cnc(NC)cc21; test = measured: investigations; test system = healthy human, matched to mild hepatic impairment; setting = oral, 50 mg single dose; measurement = participants with grade ≥ 3 TEAE; result = 12.5%
SMILES = Cc1cc(NC(=O)c2cccc(NC(=O)/C=C/CN(C)C)c2)ccc1Nc1nccc(-c2cccnc2)n1; test system = rat Wistar male, plasma; setting = 1 µM, 30 min; measurement = remaining compound; result = 89.3%
SMILES = N#Cc1ccc2c(c1)[C@H]1CCCN(C(=O)c3ccc4[nH]cnc4c3)[C@H]1C2; test system = human, female; setting = 10 mg, day 7; measurement = androstenedione level; result = 6.3 nmol/L
SMILES = Cc1nccc2c1c(=O)n(C)c1cc(OC[C@@H](N)CC(C)C)c(C#N)cc21; test system = rat, plasma; setting = intrathecal, 3 µg, 30 min; measurement = concentration; result = 3.2 nM
SMILES = CN(CCC#N)C1CCN(C(=O)Cn2cc(NC(=O)c3cnn4cccnc34)c(-c3cc(Cl)ccc3OC(F)F)n2)CC1; test = gamma scintigraphy; test system = human, right lung; setting = inhalation, dose not given; measurement = outer to inner ratio; result = 1.36
SMILES = CNC(=O)c1ccc(-c2cnc3ncc(Cc4ccc5ncccc5c4)n3n2)cc1F; test system = Japanese patients; setting = oral, 400 mg, any grade; measurement = Vomiting treatment discontinuation; result = 1%
SMILES = O=C1CC[C@H](N2Cc3cc(N4CCN(CC5CCN(c6ccc([C@@H]7c8ccc(O)cc8CC[C@@H]7c7ccccc7)cc6)CC5)CC4)ccc3C2=O)C(=O)N1; test system = human, plasma; setting = oral, 200 mg, 73.5 h, added: rosuvastatin 10 mg; measurement = Clast; result = 93.8 ng/mL
SMILES = CCN1/C(=C/C(C)=O)Sc2ccc(F)cc21; test system = cynomolgus monkey; setting = oral, 100 mg/kg, 0.5 h post-dose; measurement = QRS duration; result = 35 ± 1 ms
SMILES = CC(C)NCC(O)c1ccc(NS(C)(=O)=O)cc1 (racemic); test system = male Hartley guinea pigs, anaesthetized; setting = intravenous, 1 mg/kg group, baseline before infusion; measurement = mean blood pressure; result = 41 ± 0.3 mmHg
SMILES = CCOc1c([C@H](C)n2nc(C)c3c(N)ncnc32)cc(Cl)c(F)c1[C@@H]1CNC(=O)C1; test = ECG; test system = previously treated B-cell malignancy patients; setting = oral, 10 mg once daily, baseline below thresholds; measurement = observations with HR above 100 bpm; result = 0%
SMILES = CCC(CC)C(=O)Oc1cccc(C(O)CCN)c1.O=CO (stereo not shown); test = scotopic ERG; test system = BALB/cJ mice; setting = intraperitoneal, 10 mg/kg, 4 h dark adaptation, added: 10,000 lx photobleach, 10 min; measurement = ERG b-wave amplitude; result = 195 µV and 48 µV and 60 µV and 112 µV and 168 µV and 133 µV
SMILES = COc1ccc(C[C@@H](C)[C@@H](C)Cc2ccc(OC)c(OC)c2)cc1OC; test system = beagle dog male, plasma; setting = oral, 300 mg/kg/day, day 1, median; measurement = Tmax; result = 60 min
SMILES = Cc1c2oc3c(C)ccc(C(=O)N[C@@H]4C(=O)N[C@H](C(C)C)C(=O)N5CCC[C@H]5C(=O)N(C)CC(=O)N(C)[C@@H](C(C)C)C(=O)O[C@@H]4C)c3nc-2c(C(=O)N[C@@H]2C(=O)N[C@H](C(C)C)C(=O)N3CCC[C@H]3C(=O)N(C)CC(=O)N(C)[C@@H](C(C)C)C(=O)O[C@@H]2C)c(N)c1=O; test = LC-MS; test system = children with cancer, plasma; setting = dose not given, 1 h; measurement = maximum plasma concentration; result = 38.1 µg/L
SMILES = O=C1NCCc2nc(OCc3cccc(F)c3)ccc21; test = measured: loss of Righting; test system = Sprague-Dawley rat male; setting = oral, 100 mg/kg, 4 h; scale = direction not given; measurement = Irwin test score; result = 0
SMILES = CC(C)=CCC1=C(O)C(=O)c2ccccc2C1=O; test = cyclic voltammetry; test system = dichloromethane; setting = 0.1 mM, added: 0.1 M Bu4NPF6; scale = baseline: Ag/AgCl in saturated KOH; measurement = cathodic peak potential; result = -1.31 V
SMILES = COc1cc2c3c(n(CCCN4CCOCC4)c(=O)c2cc1OC)-c1cc2c(cc1C3=O)OCO2; test system = beagle dogs, female, plasma; setting = oral, 860 mg/m^2, gelatin capsules; measurement = Cmax; result = 483 ng/mL and 1.6 ng/mL
SMILES = O=C(COc1ccc(Cl)cc1)NC12CC(c3nnc([C@H]4C[C@@H](OC(F)(F)F)C4)o3)(C1)C2; test system = human both sexes; setting = oral, 260 mg once daily, 14 days; measurement = participants maximum mild TEAE; result = 71.4%
SMILES = COC(=O)CNC(=O)c1nc(Cl)c2ccccc2c1O; measurement = pKa (acidic); result = 5.8
SMILES = Cc1nc(-c2cnc(NC(C)C)n(C)c2=O)ccc1Oc1ccnc(-c2cnn(C)c2)c1; test system = Beagle dog, male, plasma; setting = oral, 10 mg/kg, crossover study, mean; measurement = Tmax; result = 49.8 min
SMILES = COCc1cc(C(=O)Nc2cc([C@H]3CC[C@@H](OC(=O)NC(C)C)C3)[nH]n2)n(C)n1; test system = OVCAR-3 xenograft, NOD/SCID gamma mice, plasma; setting = oral, 25 twice daily, tumour growth inhibition study; measurement = unbound C24h; result = 28 nM
SMILES = CN1C(C(=O)Nc2nnc(C(F)(F)F)s2)=C(O)c2ccccc2S1(=O)=O; measurement = pKa (basic); result = < 2
SMILES = CC(C)[C@@H](CS(=O)(=O)C(C)C)N1C(=O)[C@@](C)(CC(=O)O)C[C@H](c2cccc(Cl)c2)[C@H]1c1ccc(Cl)cc1; test system = FVB mice Abcb1a/b Abcg2 knockout, plasma; setting = intravenous, 20 mg/kg; measurement = AUC(0-inf); result = 25000 ± 1400 ng·h/mL
SMILES = O=C(c1cccnc1-c1ccncc1)N1CCC(O)(Cc2ccccc2)CC1; test system = healthy Japanese adults, plasma; setting = oral, 100 mg twice daily, day 7; measurement = AUClast/dose; result = 2.24 ng·h/mL/mg
SMILES = COc1cc(/C=C/C(=O)N2CCC=CC2=O)cc(OC)c1OC; target or system = Toxoplasma gondii; test = parasite growth, luciferase reporter; test system = HFF, tachyzoite; setting = 72 h; measurement = EC90; result = 8.98 µM
SMILES = Cc1cc(Nc2ccc(S(F)(F)(F)(F)F)cc2)n2nc(C(C)(F)F)nc2n1; target or system = Plasmodium falciparum; test = LC-MS/MS; test system = malaria patients, plasma; setting = oral, 400 mg; measurement = Cmax; result = 7030 ng/mL
SMILES = CNC(=O)c1ccc(-c2cnc3ncc(Cc4ccc5ncccc5c4)n3n2)cc1F; test = CTCAE v4.0, any causality; test system = human cancer patients; setting = oral, 600 mg twice daily, expansion cohort at RP2D; measurement = bilirubin increase incidence (all grades); result = 11%
SMILES = CNc1ccc(-c2nc3ccc(O)cc3s2)cc1 [carbon-11 labelled]; test = microPET/CT imaging; test system = APP/PS1 mouse, AD model, heart; setting = intravenous, 20 min; measurement = SUV; result = 0.637 ± 0.388
SMILES = Cc1ccc(O)c(-n2nc3ccccc3n2)c1; test = exposure assessment; test system = human, age 21-60 years; setting = foundation; measurement = mean daily dermal uptake; result = 109 ng/kg body weight/day
SMILES = COc1ccc([C@@H](O)c2cc(-c3ncnc4cc(N5CCOCC5)ccc34)c(F)cc2Cl)nn1; test system = locally advanced rectal cancer patients; setting = 250 mg, added: capecitabine and radiotherapy; measurement = constipation TEAE incidence; result = 17%
SMILES = C=CC1(C)CC(OC(=O)CSc2ccc(N)cc2)C2(C)C(C)CCC3(CCC(=O)C32)C(C)C1O (stereo not shown); test system = sheep erythrocytes; setting = 1 h, pH 7.5; measurement = maximum haemolysis; result = 2%
SMILES = CC(=O)NCCc1c[nH]c2ccc(O)cc12; test = sulfation, substrate; test system = pooled human lung cytosol; setting = 50 µM, 30 min, added: 50 mM NaF; measurement = specific activity; result = 1.29 ± 0.52 pmol/min/mg
SMILES = CO[C@H]1C[C@@H]2CC[C@@H](C)[C@@](O)(O2)C(=O)C(=O)N2CCCC[C@H]2C(=O)O[C@H]([C@H](C)C[C@@H]2CC[C@@H](O)[C@H](OC)C2)CC(=O)[C@H](C)/C=C(\C)[C@@H](O)[C@@H](OC)C(=O)[C@H](C)C[C@H](C)/C=C/C=C/C=C/1C; test system = healthy adult horses; setting = intravenous, 0.06 mg/kg, 8 h; measurement = rectal temperature; result = 37.3 ± 0.2 °C

Excerpt of the above:
SMILES = O=C1NC(=O)C(Cc2ccc(O)cc2)S1 (stereo not shown); test system = sheep erythrocytes; setting = 1 h, pH 7.5; measurement = maximum haemolysis; result = 8.3%
SMILES = C=CC(=O)N1CCC[C@@H](n2c(=O)n(-c3ccc(Oc4ccccc4)cc3)c3c(N)nccc32)C1; test system = human; setting = oral, 300 mg; scale = baseline: fed over fasted; measurement = AUC(0-last) fed/fasted ratio; result = 1.12
SMILES = Cc1ccc(C(=O)N(CCCN)C(c2nc3snc(C)c3c(=O)n2Cc2ccccc2)C(C)C)cc1 (stereo not shown); test = hypophosphataemia grade ≥3 (CTCAE); test system = human patients; setting = intravenous, 13 mg/day; measurement = patients with adverse event; result = 0%
SMILES = C[C@H]1CN(C(=O)CC#N)[C@]12CCN(c1ncnc3[nH]ccc13)C2; test system = healthy human; setting = oral, dose not given; measurement = subjects with Dizziness; result = 3.1%
